Published values collected from several papers.
Compare with care: the assays were run in different laboratories. Values joined by “and” are separate records of one study, mostly repeats; a detail may differ. Numbers after ± are the reported error.
Sequence of UniProt P05164 (whole entry, looked up): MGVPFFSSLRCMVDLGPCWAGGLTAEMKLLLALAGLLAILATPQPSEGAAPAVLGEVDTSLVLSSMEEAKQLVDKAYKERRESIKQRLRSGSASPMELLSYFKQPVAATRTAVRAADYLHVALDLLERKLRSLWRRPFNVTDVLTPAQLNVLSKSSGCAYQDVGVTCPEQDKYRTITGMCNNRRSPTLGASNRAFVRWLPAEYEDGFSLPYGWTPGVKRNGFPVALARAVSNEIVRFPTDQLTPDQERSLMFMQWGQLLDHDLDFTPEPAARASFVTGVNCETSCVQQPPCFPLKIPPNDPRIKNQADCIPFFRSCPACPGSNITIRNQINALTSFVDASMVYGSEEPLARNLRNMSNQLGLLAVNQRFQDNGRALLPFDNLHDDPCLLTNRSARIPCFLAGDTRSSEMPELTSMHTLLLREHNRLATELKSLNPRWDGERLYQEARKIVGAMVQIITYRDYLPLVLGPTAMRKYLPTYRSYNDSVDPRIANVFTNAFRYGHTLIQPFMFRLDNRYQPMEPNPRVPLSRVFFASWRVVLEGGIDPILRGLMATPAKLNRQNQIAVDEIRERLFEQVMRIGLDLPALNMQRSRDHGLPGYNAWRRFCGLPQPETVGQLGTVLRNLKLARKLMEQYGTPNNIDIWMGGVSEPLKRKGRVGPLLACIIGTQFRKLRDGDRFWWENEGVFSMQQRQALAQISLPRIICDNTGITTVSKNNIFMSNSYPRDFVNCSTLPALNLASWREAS
Sequence of UniProt P51575 (whole entry, unmodified, looked up): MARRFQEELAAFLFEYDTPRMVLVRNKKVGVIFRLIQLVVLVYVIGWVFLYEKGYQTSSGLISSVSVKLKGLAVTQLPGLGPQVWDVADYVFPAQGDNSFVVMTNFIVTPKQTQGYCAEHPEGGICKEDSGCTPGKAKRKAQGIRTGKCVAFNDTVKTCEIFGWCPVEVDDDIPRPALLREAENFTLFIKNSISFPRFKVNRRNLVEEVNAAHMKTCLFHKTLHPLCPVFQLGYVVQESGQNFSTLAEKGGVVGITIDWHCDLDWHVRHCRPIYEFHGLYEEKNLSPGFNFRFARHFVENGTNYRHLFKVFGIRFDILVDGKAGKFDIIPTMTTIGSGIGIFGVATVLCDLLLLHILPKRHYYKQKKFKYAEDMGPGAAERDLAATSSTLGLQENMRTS
Sequence of UniProt O14641 (whole entry, looked up): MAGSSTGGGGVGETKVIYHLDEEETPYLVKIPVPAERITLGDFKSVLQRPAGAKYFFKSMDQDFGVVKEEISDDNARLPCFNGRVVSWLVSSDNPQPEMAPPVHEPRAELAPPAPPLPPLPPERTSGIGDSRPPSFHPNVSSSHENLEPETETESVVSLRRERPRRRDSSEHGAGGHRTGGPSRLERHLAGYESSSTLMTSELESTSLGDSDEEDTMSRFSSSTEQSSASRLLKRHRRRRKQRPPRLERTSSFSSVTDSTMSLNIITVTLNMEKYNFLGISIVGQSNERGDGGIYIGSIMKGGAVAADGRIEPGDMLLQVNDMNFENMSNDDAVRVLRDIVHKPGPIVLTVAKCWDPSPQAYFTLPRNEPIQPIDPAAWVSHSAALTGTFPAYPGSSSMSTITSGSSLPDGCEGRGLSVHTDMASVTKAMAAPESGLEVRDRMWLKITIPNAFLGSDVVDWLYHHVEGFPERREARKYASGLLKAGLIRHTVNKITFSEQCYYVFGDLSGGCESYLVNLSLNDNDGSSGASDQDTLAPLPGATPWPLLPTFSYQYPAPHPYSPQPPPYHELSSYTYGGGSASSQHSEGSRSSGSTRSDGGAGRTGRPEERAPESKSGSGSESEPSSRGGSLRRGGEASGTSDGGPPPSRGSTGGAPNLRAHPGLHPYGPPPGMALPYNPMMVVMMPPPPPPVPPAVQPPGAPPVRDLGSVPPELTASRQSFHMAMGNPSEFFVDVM
Sequence of UniProt Q96BR1 (whole entry, looked up): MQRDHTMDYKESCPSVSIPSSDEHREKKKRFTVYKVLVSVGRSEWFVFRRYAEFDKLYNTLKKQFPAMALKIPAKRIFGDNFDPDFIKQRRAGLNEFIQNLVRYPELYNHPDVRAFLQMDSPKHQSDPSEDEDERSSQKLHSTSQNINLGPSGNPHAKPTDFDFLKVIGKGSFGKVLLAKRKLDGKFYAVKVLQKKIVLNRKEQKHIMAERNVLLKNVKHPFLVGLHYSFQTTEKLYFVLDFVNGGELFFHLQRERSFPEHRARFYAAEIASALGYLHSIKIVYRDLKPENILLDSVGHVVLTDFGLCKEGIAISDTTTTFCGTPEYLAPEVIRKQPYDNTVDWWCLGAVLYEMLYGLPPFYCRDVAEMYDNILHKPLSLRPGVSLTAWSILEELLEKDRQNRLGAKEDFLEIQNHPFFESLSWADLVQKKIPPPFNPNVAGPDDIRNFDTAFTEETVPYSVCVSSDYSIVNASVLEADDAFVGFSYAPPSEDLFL
Sequence of UniProt P07741 (whole entry, looked up): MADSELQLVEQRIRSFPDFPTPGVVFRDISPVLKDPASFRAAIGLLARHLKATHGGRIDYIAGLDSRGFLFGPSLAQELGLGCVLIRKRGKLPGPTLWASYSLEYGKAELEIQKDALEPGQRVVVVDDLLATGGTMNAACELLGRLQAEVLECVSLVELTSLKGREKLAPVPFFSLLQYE
Sequence of UniProt Q6PL18 (whole entry, unmodified, looked up): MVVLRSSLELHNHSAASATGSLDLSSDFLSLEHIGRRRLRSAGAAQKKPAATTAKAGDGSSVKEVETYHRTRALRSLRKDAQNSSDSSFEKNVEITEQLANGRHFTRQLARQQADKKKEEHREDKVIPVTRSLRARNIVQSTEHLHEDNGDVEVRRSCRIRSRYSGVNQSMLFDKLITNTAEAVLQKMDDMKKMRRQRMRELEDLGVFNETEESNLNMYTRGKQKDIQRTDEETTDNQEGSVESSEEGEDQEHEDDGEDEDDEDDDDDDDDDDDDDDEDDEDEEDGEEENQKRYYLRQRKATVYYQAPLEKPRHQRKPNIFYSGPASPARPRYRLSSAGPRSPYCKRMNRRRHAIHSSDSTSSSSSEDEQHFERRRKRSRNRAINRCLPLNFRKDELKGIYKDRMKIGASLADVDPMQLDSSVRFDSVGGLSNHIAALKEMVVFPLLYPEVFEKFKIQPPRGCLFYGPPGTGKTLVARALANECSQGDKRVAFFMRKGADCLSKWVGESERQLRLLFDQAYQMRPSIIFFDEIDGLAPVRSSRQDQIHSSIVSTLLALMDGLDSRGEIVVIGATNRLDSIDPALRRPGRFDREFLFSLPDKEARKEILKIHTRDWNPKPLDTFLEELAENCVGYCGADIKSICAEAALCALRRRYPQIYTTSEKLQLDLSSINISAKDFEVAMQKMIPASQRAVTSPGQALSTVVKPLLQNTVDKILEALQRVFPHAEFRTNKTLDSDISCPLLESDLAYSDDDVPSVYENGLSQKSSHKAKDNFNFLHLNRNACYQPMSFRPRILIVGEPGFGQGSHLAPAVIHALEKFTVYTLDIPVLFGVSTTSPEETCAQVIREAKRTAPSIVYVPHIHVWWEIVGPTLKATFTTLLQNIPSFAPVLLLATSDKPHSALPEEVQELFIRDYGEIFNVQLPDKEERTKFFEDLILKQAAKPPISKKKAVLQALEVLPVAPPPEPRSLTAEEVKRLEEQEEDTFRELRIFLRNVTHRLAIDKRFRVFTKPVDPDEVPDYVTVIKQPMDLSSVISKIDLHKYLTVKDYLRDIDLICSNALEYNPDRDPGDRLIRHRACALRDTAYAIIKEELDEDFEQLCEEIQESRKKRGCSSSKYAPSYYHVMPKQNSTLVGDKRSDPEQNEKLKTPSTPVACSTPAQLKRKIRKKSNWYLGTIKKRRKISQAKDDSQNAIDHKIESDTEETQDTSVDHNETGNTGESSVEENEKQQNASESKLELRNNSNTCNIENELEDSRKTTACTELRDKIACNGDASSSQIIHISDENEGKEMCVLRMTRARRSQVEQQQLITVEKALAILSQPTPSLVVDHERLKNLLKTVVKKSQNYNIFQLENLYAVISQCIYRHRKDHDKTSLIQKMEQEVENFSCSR

CC(C(=O)Nc1ccc(C2CCCCC2)cc1)n1cncn1 (stereo not drawn) — hepatic clearance (dog liver microsomes; 1 µM): 20 mL/min/kg
CC(C)OCCn1c(=S)[nH]c(=O)c2[nH]ccc21 — LDL lipid peroxidation (Myeloperoxidase (MPO, Homo sapiens, UniProt P05164); inhibitor, cholesteryl ester hydroperoxide; 0.1235 µM; baseline: control): 82.3% and 141% and 58.3% and 92.4%
O=C(COP(=O)(O)O)[C@@H](O)[C@H](O)[C@H](O)COP(=O)(O)O — thermal stability ratio (Adenine phosphoribosyltransferase (Homo sapiens, UniProt P07741); thermal proteome profiling, refers to: APRT; HepG2 cell lysate; concentration not given, 57 over 37 °C, mean; baseline: compound over control): 0.519
O=C(Nc1ccc(C2CCCCC2)cc1)[C@H]1CC1(F)F — hepatic clearance (liver microsome stability; human liver microsomes; 1 µM, without NADPH): 7.1 mL/min/kg
COc1cc(Cl)c(C(=O)N[C@@H](CN[C@H]2CC[C@@H](N)CC2)Cc2ccc(C#N)cc2)cc1-c1ccc(CN[C@H](C)c2ccc(C)cc2)o1 — ΔH (ATPase family AAA domain-containing protein 2, bromodomain (ATAD2, Homo sapiens, UniProt Q6PL18); ITC; 37 °C): -2.16 kcal/mol
CC[C@H](C)[C@H](NC(=O)[C@H](Cc1ccccc1)NC(=O)[C@H](CCC(=O)O)NC(=O)[C@H](CCCNC(=N)N)NC(=O)[C@H](C)NC(=O)[C@H](C)NC(=O)[C@H](CCC(N)=O)NC(=O)[C@H](CCC(=O)O)NC(=O)[C@H](CCC(=O)O)NC(=O)[C@H](CC(C)C)NC(=O)[C@H](Cc1ccc(O)cc1)NC(=O)[C@H](CO)NC(=O)[C@H](CO)NC(=O)[C@@H](NC(=O)[C@H](CC(=O)O)NC(=O)[C@H](CO)NC(=O)[C@@H](NC(=O)[C@H](Cc1ccccc1)NC(=O)[C@@H](NC(=O)CNC(=O)[C@H](CCC(=O)O)NC(=O)[C@H](C)NC(=O)CCc1cnc[nH]1)[C@@H](C)O)[C@@H](C)O)C(C)C)C(=O)N[C@@H](C)C(=O)N[C@@H](Cc1c[nH]c2ccccc12)C(=O)N[C@@H](CC(C)C)C(=O)N[C@H](C(=O)N[C@@H](CCCNC(=N)N)C(=O)NCC(=O)N[C@@H](CCCNC(=N)N)C(=O)N[C@@H](CCCCNC(=O)COCCOCCNC(=O)COCCOCCNC(=O)CC[C@H](NC(=O)CCCCCCCCCCCCCCCCC(=O)O)C(=O)O)C(=O)NCC(=O)NCC(=O)N[C@@H](CO)C(=O)N[C@@H](CCCCNc1c(NCCCCCN(O)C(=O)CCC(=O)NCCCCCN(O)C(=O)CCC(=O)NCCCCCN(O)C(C)=O)c(=O)c1=O)C(=O)NCC(=O)NCC(=O)N[C@@H](CO)C(=O)N[C@@H](CCCCNc1c(NCCCCCN(O)C(=O)CCC(=O)NCCCCCN(O)C(=O)CCC(=O)NCCCCCN(O)C(C)=O)c(=O)c1=O)C(=O)NCC(=O)NCC(=O)N[C@@H](CO)C(=O)N[C@@H](CCCCNc1c(NCCCCCN(O)C(=O)CCC(=O)NCCCCCN(O)C(=O)CCC(=O)NCCCCCN(O)C(C)=O)c(=O)c1=O)C(=O)O)C(C)C — fold potency loss (GLP1R (Homo sapiens, UniProt P43220); agonist, CRE luciferase reporter; BHK cells; Zr-loaded DFO conjugate, together with: 0% HSA; baseline: parent peptide): 11.1
Cc1ncsc1-c1ccc(CNC(=O)[C@@H]2C[C@H](O)CN2C(=O)[C@@H](NC(=O)C2(F)CC2)C(C)(C)C)c(OCCOc2ccc(CN3CCN(c4cc(-c5ccccc5O)nnc4N)CC3)cc2)c1 — cooperativity factor alpha (SWI/SNF-related matrix-associated actin-dependent regulator of chromatin subfamily A member 4, bromodomain (SMARCA4, Homo sapiens, UniProt P51532); ternary complex binding, TR-FRET competition; together with: VCB complex): 1
CC[C@@H]1[C@H](F)C(=O)N[C@@H]1COc1nccc2cc(C(N)=O)c(OC)cc12 — inhibition (SGK3 (Homo sapiens, UniProt Q96BR1); ATP-site probe binding, ActivX profiling; THP-1 cell lysate; 0.2 mM, Lys2 site): 7.4%
Clc1ccccc1CNCC1CCC(CNCc2ccccc2Cl)CC1 (stereo not drawn) — nuclear protein level (Segment polarity protein dishevelled homolog DVL-2, with FoxK2 (Homo sapiens, UniProt O14641); co-immunoprecipitation, refers to: FoxK2 interaction; concentration not given): increased
CC[C@H](C)[C@@H]1NC(=O)[C@H](Cc2ccc(O)cc2)NC(=O)CSC[C@@H](C(N)=O)NC(=O)CNC(=O)[C@H](Cc2c[nH]cn2)NC(=O)[C@H](CCCNC(=N)N)NC(=O)[C@H](CC(N)=O)NC(=O)[C@@H]2CCCN2C(=O)[C@H](Cc2ccccc2)NC(=O)[C@H]([C@@H](C)O)NC(=O)CNC(=O)[C@H](CC(C)C)NC(=O)[C@@H]2CCCN2C(=O)[C@H]([C@@H](C)O)NC(=O)[C@H](CCCCN)NC1=O — ΔG (Vacuolar protein sorting-associated protein 29 (VPS29, Homo sapiens, UniProt Q9UBQ0); binding, ITC; 25 °C, protein alone): -9.8 ± 0.08 kcal/mol
Nc1ncnc2c1ncn2[C@@H]1O[C@H](COP(=O)(O)CP(=O)(O)OP(=O)(O)O)[C@@H](O)[C@H]1O — specific binding (P2X purinoceptor 1 (P2RX1, Homo sapiens, UniProt P51575, L218T); saturation binding; HEK293; 130 nM): 5510 CCPM and 5120 CCPM
O=C(O)c1ccc(Nc2ncc3c(n2)-c2ccc(Cl)cc2C(c2c(F)cccc2F)=NC3)cc1 — remaining activity (CK1γ3(h); kinase activity; 1 µM): 113%

For quick reference, copied from above:
CC[C@H](C)[C@H](NC(=O)[C@H](Cc1ccccc1)NC(=O)[C@H](CCC(=O)O)NC(=O)[C@H](CCCNC(=N)N)NC(=O)[C@H](C)NC(=O)[C@H](C)NC(=O)[C@H](CCC(N)=O)NC(=O)[C@H](CCC(=O)O)NC(=O)[C@H](CCC(=O)O)NC(=O)[C@H](CC(C)C)NC(=O)[C@H](Cc1ccc(O)cc1)NC(=O)[C@H](CO)NC(=O)[C@H](CO)NC(=O)[C@@H](NC(=O)[C@H](CC(=O)O)NC(=O)[C@H](CO)NC(=O)[C@@H](NC(=O)[C@H](Cc1ccccc1)NC(=O)[C@@H](NC(=O)CNC(=O)[C@H](CCC(=O)O)NC(=O)[C@H](C)NC(=O)CCc1cnc[nH]1)[C@@H](C)O)[C@@H](C)O)C(C)C)C(=O)N[C@@H](C)C(=O)N[C@@H](Cc1c[nH]c2ccccc12)C(=O)N[C@@H](CC(C)C)C(=O)N[C@H](C(=O)N[C@@H](CCCNC(=N)N)C(=O)NCC(=O)N[C@@H](CCCNC(=N)N)C(=O)N[C@@H](CCCCNC(=O)COCCOCCNC(=O)COCCOCCNC(=O)CC[C@H](NC(=O)CCCCCCCCCCCCCCCCC(=O)O)C(=O)O)C(=O)NCC(=O)NCC(=O)N[C@@H](CO)C(=O)N[C@@H](CCCCNc1c(NCCCCCN(O)C(=O)CCC(=O)NCCCCCN(O)C(=O)CCC(=O)NCCCCCN(O)C(C)=O)c(=O)c1=O)C(=O)NCC(=O)NCC(=O)N[C@@H](CO)C(=O)N[C@@H](CCCCNc1c(NCCCCCN(O)C(=O)CCC(=O)NCCCCCN(O)C(=O)CCC(=O)NCCCCCN(O)C(C)=O)c(=O)c1=O)C(=O)NCC(=O)NCC(=O)N[C@@H](CO)C(=O)N[C@@H](CCCCNc1c(NCCCCCN(O)C(=O)CCC(=O)NCCCCCN(O)C(=O)CCC(=O)NCCCCCN(O)C(C)=O)c(=O)c1=O)C(=O)O)C(C)C — fold potency loss (GLP1R (Homo sapiens, UniProt P43220); agonist, CRE luciferase reporter; BHK cells; Zr-loaded DFO conjugate, together with: 0% HSA; baseline: parent peptide): 11.1
